Results pooled from the literature.
Parts stem from different laboratories: compare values within a part only. Values joined by “and” are separate records of one study, mostly repeats; a detail may differ. Substitutions count along the parent as printed.
Chain of UniProt P08913 (whole entry, looked up): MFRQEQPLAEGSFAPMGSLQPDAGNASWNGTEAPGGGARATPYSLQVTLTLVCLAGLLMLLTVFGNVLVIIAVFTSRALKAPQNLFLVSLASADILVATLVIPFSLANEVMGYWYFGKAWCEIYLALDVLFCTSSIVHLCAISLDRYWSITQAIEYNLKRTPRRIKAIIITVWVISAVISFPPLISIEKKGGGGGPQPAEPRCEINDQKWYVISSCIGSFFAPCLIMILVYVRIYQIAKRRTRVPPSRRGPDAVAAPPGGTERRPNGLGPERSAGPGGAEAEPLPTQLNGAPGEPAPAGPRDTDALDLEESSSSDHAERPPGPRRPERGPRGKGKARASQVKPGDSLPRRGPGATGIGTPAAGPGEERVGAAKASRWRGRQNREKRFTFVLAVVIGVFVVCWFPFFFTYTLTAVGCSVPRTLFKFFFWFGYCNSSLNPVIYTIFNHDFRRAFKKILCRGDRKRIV

Study 1
Target: vanadate, free oxyanion
Method: microfluidic competitive inhibition
Matrix: in vitro, cell-free expressed
Tested at: not given
Notes: derived from inhibition constants, unchanged parent 676 nM
Direction: lower = stronger binding
Starting sequence: PafA, mature enzyme, eGFP fusion (Elizabethkingia meningoseptica, UniProt Q9KJX5); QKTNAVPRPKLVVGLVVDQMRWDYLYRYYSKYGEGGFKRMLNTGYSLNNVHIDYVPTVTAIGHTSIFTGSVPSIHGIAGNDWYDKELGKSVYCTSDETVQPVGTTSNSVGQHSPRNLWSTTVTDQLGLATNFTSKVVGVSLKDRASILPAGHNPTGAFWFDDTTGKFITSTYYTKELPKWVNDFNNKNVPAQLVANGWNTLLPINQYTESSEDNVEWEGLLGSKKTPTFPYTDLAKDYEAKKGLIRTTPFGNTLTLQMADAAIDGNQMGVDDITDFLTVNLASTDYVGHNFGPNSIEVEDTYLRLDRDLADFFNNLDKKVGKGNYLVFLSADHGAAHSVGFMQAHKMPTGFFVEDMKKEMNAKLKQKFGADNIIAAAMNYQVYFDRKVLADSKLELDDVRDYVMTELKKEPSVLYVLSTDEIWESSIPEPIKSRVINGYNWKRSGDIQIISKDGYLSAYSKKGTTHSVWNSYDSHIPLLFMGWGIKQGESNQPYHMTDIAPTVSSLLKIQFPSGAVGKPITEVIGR
`F132G`: “oxyanion analog dissociation constant” 582 nM.
`F132V`: “oxyanion analog dissociation constant” 2.27 µM.
Under “oxyanion analog dissociation constant”, `I245V` is recorded as 719 nM.
`T349V` — result for “oxyanion analog dissociation constant”: 597 nM.
Under “oxyanion analog dissociation constant”, `G33V` is recorded as 594 nM.
`L506G` — result for “oxyanion analog dissociation constant”: 1.04 µM.
`N48G` — result for “oxyanion analog dissociation constant”: 749 nM.
`A458G`: “oxyanion analog dissociation constant” 649 nM.

Study 2
Target: CCND2, cyclin fold, Cln2 fusion (human)
Method: yeast growth competition, sequencing
Matrix: yeast
Notes: strong parent motif
Relative to: not given
Direction: higher = stronger binding
Starting sequence: viral docking peptide; YKVKRRLVFGADD; partner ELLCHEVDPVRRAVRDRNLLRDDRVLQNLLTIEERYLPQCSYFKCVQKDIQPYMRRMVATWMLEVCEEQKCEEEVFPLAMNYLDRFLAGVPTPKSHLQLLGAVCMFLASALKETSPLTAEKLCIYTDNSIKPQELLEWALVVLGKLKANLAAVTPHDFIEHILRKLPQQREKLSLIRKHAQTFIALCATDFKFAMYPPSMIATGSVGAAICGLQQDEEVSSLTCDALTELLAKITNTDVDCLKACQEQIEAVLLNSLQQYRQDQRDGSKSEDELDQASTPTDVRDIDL
`V3L` — result for “normalised enrichment score”: 0.305.
`G10Y` — result for “normalised enrichment score”: 1.06.
`K2Q` — result for “normalised enrichment score”: 1.72.
Under “normalised enrichment score”, `F9V` is recorded as -0.021.
`K2M` — result for “normalised enrichment score”: 1.35.
`V8Y` — result for “normalised enrichment score”: 0.678.
For `D12W`, “normalised enrichment score” read 0.698.
For `K2C`, “normalised enrichment score” read 1.66.

Other studies, line by line
POLQ ATPase domain: DNA polymerase theta, ATPase domain (POLQ, Homo sapiens, UniProt O75417)
Chain of UniProt O75417 (whole entry, unmodified, looked up): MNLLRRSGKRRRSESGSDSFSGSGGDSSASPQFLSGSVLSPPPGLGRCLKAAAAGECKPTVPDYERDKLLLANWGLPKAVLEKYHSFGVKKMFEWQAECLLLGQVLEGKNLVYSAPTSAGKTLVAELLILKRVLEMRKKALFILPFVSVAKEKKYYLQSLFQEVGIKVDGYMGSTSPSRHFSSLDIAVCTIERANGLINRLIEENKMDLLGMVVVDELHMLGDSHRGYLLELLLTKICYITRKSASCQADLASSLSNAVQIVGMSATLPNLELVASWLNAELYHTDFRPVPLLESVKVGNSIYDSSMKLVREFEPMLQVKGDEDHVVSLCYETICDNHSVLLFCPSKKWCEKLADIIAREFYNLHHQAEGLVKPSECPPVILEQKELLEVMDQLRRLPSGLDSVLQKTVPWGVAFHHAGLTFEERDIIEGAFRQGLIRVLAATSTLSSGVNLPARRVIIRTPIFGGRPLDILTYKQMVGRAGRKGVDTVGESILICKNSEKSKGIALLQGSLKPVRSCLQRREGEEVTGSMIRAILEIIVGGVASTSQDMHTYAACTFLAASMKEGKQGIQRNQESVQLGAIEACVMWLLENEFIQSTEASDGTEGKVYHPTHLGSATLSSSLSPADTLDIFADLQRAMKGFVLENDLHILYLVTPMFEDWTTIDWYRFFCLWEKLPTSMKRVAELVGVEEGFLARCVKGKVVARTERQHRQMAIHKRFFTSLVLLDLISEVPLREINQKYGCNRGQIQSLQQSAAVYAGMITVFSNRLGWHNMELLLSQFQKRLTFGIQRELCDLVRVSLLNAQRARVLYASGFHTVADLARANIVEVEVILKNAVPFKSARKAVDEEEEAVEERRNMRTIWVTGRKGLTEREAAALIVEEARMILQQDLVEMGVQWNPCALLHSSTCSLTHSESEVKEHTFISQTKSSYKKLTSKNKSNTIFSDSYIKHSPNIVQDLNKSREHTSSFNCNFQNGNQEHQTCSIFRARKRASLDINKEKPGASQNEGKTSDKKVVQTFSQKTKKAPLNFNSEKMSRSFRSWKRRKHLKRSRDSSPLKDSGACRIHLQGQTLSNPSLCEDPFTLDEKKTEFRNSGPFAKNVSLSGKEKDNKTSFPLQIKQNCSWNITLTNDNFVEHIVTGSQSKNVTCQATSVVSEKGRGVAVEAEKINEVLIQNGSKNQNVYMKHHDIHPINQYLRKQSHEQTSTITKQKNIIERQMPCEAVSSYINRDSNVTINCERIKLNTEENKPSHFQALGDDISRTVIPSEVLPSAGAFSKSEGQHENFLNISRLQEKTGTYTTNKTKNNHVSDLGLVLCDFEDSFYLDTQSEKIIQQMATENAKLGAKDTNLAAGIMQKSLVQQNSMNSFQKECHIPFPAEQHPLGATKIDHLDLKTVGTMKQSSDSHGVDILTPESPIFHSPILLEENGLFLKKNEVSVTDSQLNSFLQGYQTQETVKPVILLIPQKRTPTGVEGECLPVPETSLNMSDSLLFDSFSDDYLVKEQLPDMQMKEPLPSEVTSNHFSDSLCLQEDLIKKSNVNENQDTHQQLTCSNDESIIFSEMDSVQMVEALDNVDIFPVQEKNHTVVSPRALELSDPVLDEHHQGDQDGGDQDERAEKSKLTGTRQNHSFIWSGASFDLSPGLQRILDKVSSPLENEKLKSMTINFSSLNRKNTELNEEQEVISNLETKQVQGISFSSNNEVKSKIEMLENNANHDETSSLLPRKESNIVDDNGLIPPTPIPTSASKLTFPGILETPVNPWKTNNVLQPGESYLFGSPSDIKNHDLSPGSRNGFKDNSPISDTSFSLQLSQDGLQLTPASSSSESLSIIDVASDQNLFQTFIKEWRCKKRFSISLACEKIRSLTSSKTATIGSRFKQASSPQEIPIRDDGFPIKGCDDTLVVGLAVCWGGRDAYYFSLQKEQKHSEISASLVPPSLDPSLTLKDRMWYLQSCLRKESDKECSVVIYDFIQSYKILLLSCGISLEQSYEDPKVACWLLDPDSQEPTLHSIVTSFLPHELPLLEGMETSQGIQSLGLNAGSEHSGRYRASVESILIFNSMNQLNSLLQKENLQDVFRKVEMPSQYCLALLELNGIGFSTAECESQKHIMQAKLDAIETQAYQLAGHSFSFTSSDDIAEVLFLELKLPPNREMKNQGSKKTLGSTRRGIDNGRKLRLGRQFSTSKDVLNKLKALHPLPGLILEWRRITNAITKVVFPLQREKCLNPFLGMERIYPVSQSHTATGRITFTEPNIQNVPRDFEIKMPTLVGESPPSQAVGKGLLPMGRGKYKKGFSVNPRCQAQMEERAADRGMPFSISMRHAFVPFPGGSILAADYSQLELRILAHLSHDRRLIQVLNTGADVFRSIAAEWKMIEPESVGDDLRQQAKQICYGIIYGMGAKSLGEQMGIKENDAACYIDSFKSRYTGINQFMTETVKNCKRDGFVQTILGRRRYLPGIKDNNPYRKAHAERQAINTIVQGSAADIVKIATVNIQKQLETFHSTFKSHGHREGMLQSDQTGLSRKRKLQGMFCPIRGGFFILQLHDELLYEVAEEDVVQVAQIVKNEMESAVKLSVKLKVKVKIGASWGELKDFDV
The remaining binding of CNCc1ccccc1-c1csc([C@@H](C)Nc2nc(C)nc3cc(OC)c(OC)cc23)c1 is reported as 76% (CRK2 (Plasmodium falciparum, UniProt P61075); cell-free assay, competition with immobilised ligand; 1 µM).
With c1ccc(Oc2ccc(Nc3c4c(nc5ccccc35)CCC4)cc2)cc1 the cytotoxicity was 48% and 42% (HepG2; resazurin; 33.32 µM, 48 h).
CNC(=O)c1cc(C(=O)NC2CC2)cn(Cc2ccccc2)c1=O has an inhibition of -4.53% (ADRA2A (Homo sapiens, UniProt P08913); binding, radioligand binding; 10 µM).
The remaining activity of CC1(C)CC(O)CC(C)(C)N1[O] is reported as 97.5% (POLQ ATPase domain; enzyme activity, inhibitor; 77 µM).
CNC(=O)c1ccc(Nc2ncc(C(F)(F)F)c(NCc3nccnc3N(C)S(C)(=O)=O)n2)cc1 has a remaining binding of 69% (pknB (Mycobacterium tuberculosis, UniProt P9WI81); cell-free assay, competition with immobilised ligand; 0.1 µM).
For CCc1c(C(=O)C(N)=O)c2c(OCC(=O)O)cccc2n1Cc1ccccc1, the remaining activity was 95.9% (POLQ ATPase domain; enzyme activity, inhibitor; 77 µM).

A few entries again (study 2):
`V3L` — result for “normalised enrichment score”: 0.305.
`K2M` — result for “normalised enrichment score”: 1.35.
`G10Y` — result for “normalised enrichment score”: 1.06.
